Published values of several laboratories.
Protocols differ between the studies behind these lines. ± gives the spread as reported.

For `CC(C)(Sc1ccncc1-c1ccc(C#N)c2ccccc12)C(=O)O`, the Cmax was 5.66 ng/mL (human, male, Japanese, plasma; oral, 2.5 mg, day 6, fed, single dose).
The Cmax of `CCOc1ccc(Cc2cc([C@]34OC[C@](CO)(O3)[C@@H](O)[C@H](O)[C@H]4O)ccc2Cl)cc1` is reported as 266 ng/mL (human, plasma; oral, 15 mg, together with: sitagliptin 100 mg).
With `O=c1[nH]c(=O)c(Cc2cccc(C(F)(F)F)c2)c([C@H]2CC[C@H](c3ccccc3)CC2)[nH]1` the Cmax was 469 ng/mL (human, plasma; oral, 450 mg once daily, day 14, geometric mean).
`Cc1cn(-c2cc(NC(=O)c3ccc(C)c(Nc4nccc(-c5cccnc5)n4)c3)cc(C(F)(F)F)c2)cn1` gave a Cmax of 1350 ng/mL (human, serum; oral, 400 mg twice daily, steady state).
With `COc1cc2ncnc(Nc3ccc(F)c(Cl)c3)c2cc1OCCCN1CCOCC1` the Cmax was 294 ng/mL (human, plasma; oral, 250 mg, mean).
For `NS(=O)(=O)OC[C@@H]1C[C@@H](n2ccc3c(N[C@H]4CCc5ccccc54)ncnc32)C[C@@H]1O`, the Cmax was 51 ng/mL (human; iv, 8 mg/m^2, day 8, geometric LS mean, together with: fluconazole).
For `Nc1ccn([C@@H]2O[C@H](CO)[C@@H](O)C2(F)F)c(=O)n1`, the Cmax was 11700 ng/mL (human cancer patients, plasma; intravenous, 750 mg/m^2, cycle 1 day 15, together with: lonafarnib 150 mg twice daily).
With `O=C([O-])CCCCCCCNC(=O)c1ccccc1O.[Na+]` the Cmax was 2360 ng/mL (human, severe hepatic impairment, plasma; oral, once daily, day 10, after dose 10, geometric mean).
`CS(=O)(=O)Nc1ccc(C(=O)O[C@@H](Cc2c(Cl)c[n+]([O-])cc2Cl)c2ccc(OC(F)F)c(OCC3CC3)c2)cc1OCC1CC1` gave a Cmax of 0.179 ng/mL (human, plasma; inhaled, 300 µg once daily, day 1, single-dose dry powder inhaler).
`CN[C@@H]1COc2c(S(=O)(=O)NC(=O)Nc3c4c(cc5c3CCC5)CCC4)cnn2C1` gave a Cmax of 23100 ng/mL (human; oral, 600 mg, high-fat meal, geometric LS mean).
The Cmax of `COc1c(OCCCN2CCOCC2)ccc2c1N=C(NC(=O)c1cnc(N)nc1)N1CCN=C21` is reported as 194 ng/mL (human cancer patients, plasma; intravenous, 0.6 mg/kg weekly, cycle 1 day 15, geometric mean, together with: refametinib 30 mg twice daily).
For `Cn1ncc(Cl)c1-c1cc(C(=O)N[C@H](CN)Cc2ccc(F)c(F)c2)oc1Cl`, the Cmax was 9 to 10.5 ng/mL (human patients, plasma; oral, 10 mg, single dose, fasting).
With `C=C(C)[C@@H]1CC[C@]2(NCCN3CCS(=O)(=O)CC3)CC[C@]3(C)[C@H](CC[C@@H]4[C@@]5(C)CC=C(C6=CC[C@@](CF)(C(=O)O)CC6)C(C)(C)[C@@H]5CC[C@]43C)[C@@H]12` the Cmax was 1430 ng/mL (healthy human volunteers, plasma; oral, 200 mg, tablet, moderate-fat state, geometric mean).
`O=C(NC[C@H]1CN(c2ccc(N3CCOCC3=O)cc2)C(=O)O1)c1ccc(Cl)s1` gave a Cmax of 408 ± 97.8 ng/mL (human; 20 mg once daily, day 3).
For `CS(=O)(=O)n1cc2c(n1)CN([C@H]1CO[C@H](c3cc(F)ccc3F)[C@@H](N)C1)C2`, the Cmax was 195 nM (healthy male human, plasma; oral, 10 mg once weekly, day 15, fasted, geometric mean).
`CC(C)(Sc1ccncc1-c1ccc(C#N)c2ccccc12)C(=O)O` gave a Cmax of 3.45 ng/mL (human, plasma; oral, 2.5 mg, together with: febuxostat 40 mg).
The Cmax of `CCOc1ccc(Cc2cc([C@@H]3S[C@H](CO)[C@@H](O)[C@H](O)[C@H]3O)c(OC)cc2C)cc1` is reported as 214 ± 52 ng/mL (human, plasma; oral, 5 mg/day, day 1, multiple dose before breakfast).
For `CC[C@H](C)[C@@H]1NC(=O)[C@H](CCCNC(=N)N)NC(=O)[C@H](CC(=O)O)NC(=O)[C@H](CC(C)C)NC(=O)[C@H](CCCCN)NC(=O)[C@H](CC(C)C)NC(=O)CNC(=O)[C@H](Cc2ccccc2)NC(=O)[C@@H](NC(=O)CNC(=O)[C@H](CCCCN)NC(=O)[C@H](CO)NC(=O)[C@H](CC(C)C)NC(=O)CNC(=O)[C@H](CCCCN)NC(=O)[C@H](CCCCN)NC(=O)[C@H](CC(N)=O)NC(=O)[C@H](C)NC(=O)CNC(=O)[C@H](CCCCN)NC(=O)[C@H](Cc2ccc(O)cc2)NC(=O)[C@H](CCCCN)NC(=O)[C@H](CCCNC(=N)N)NC(=O)[C@H](C)NC(=O)[C@H](CC(N)=O)NC(=O)[C@@H]2CCCN2C(=O)[C@H](Cc2c[nH]cn2)NC(=O)[C@H](CCC(=O)O)NC(=O)[C@H](CCC(N)=O)NC(=O)CNC(=O)[C@@H]2CCCN2)CSSC[C@@H](C(=O)O)NC(=O)CNC(=O)[C@H](CC(C)C)NC(=O)CNC(=O)[C@H](CO)NC(=O)[C@H](CCSC)NC(=O)[C@H](CO)NC(=O)CNC1=O`, the Cmax was 6.52 ng/mL (human, plasma; subcutaneous, 15 µg/kg once daily, week 26).
For `CON(C)C(=O)N1N=C(c2cc(F)ccc2F)S[C@@]1(CCCN)c1ccccc1`, the Cmax was 70.3 ng/mL (human patients, plasma; intravenous, 3.6 mg/m2, cycle 1 day 3).
The Cmax of `CN1C(=O)[C@@H](NC(=O)c2nnc(Cc3ccccc3)[nH]2)COc2ccccc21` is reported as 1440 ng/mL (human male, plasma; oral, 120 mg twice daily, day 14).
`C=CC(=O)Nc1cc(Nc2ncc(C(=O)OC(C)C)c(-c3cn(C)c4ccccc34)n2)c(OC)cc1N(C)CCN(C)C` has a Cmax of 25.8 ng/mL (human, fasted; oral, 120 mg single dose, geometric mean).
`C#Cc1cccc(Nc2ncnc3cc(OCCOC)c(OCCO)cc23)c1` has a Cmax of 56 ± 43 ng/mL (human, plasma; erlotinib, day 29, normalised to erlotinib 150 mg, together with: dovitinib).
With `Cc1cccc(C)c1OCC(=O)N[C@@H](Cc1ccccc1)[C@@H](O)C[C@H](Cc1ccccc1)NC(=O)[C@H](C(C)C)N1CCCNC1=O` the Cmax was 11000 ng/mL (HIV/HCV coinfected humans, plasma; oral, dose not given, steady-state median, together with: lopinavir/ritonavir twice daily).
`C=C(C)[C@@H]1CC[C@]2(NCCN3CCS(=O)(=O)CC3)CC[C@]3(C)[C@H](CC[C@@H]4[C@@]5(C)CC=C(C6=CC[C@@](CF)(C(=O)O)CC6)C(C)(C)[C@@H]5CC[C@]43C)[C@@H]12` gave a Cmax of 2160 ng/mL (human; oral, 320 mg once daily, day 14, multiple ascending dose).
For `CCN1CCN(Cc2ccc(Nc3ncc(F)c(-c4cc(F)c5nc(C)n(C(C)C)c5c4)n3)nc2)CC1`, the Cmax was 141 ng/mL (human patients, plasma; oral, 200 mg single, geometric mean).
With `C[C@H](N)C(=O)N1C[C@H](CCCB(O)O)[C@](N)(C(=O)O)C1` the Cmax was 1480 ± 491 ng/mL (human patients, plasma; oral, 100 mg single dose, cycle 1 day 1).
For `CO[C@H]1C[C@@H]2CC[C@@H](C)[C@@](O)(O2)C(=O)C(=O)N2CCCC[C@H]2C(=O)O[C@H]([C@H](C)C[C@@H]2CC[C@@H](O)[C@H](OC)C2)CC(=O)[C@H](C)/C=C(\C)[C@@H](O)[C@@H](OC)C(=O)[C@H](C)C[C@H](C)/C=C/C=C/C=C/1C`, the Cmax was 10.7 ng/mL (healthy adult human, blood; oral, 0.5 mg single dose, geometric mean, together with: ritonavir-containing 3D regimen).
`O=C(/C=C/c1cccc(S(=O)(=O)Nc2ccccc2)c1)NO[C@@H]1O[C@H](C(=O)O)[C@@H](O)[C@H](O)[C@H]1O` has a Cmax of 67200 ng/mL (human moderate liver dysfunction, plasma; intravenous, 400 mg/m^2, 30 min infusion, cycle 1 day -7, together with: belinostat 400 mg/m^2 iv).
`O=C(Cc1cccc(OC(F)(F)F)c1)Nc1ccc(CCCCc2nnc(NC(=O)Cc3ccccn3)s2)nn1` has a Cmax of 914 ng/mL (human patients, plasma; oral, 250 mg three times daily fasted, cycle 1 day 15 steady state).
The Cmax of `C=CC(=O)Nc1cc(Nc2ncc(C(=O)OC(C)C)c(-c3cn(C)c4ccccc34)n2)c(OC)cc1N(C)CCN(C)C` is reported as 75.3 ng/mL (human, plasma; oral, 160 mg, geometric mean, alone).
`CCCCC1(CCCC)CN(c2ccccc2)c2cc(SC)c(OCC(=O)N[C@@H](C(=O)NCC(=O)O)c3ccccc3)cc2S(=O)(=O)C1` has a Cmax of 0.692 ng/mL (LC-MS/MS; human, plasma; oral, 20 mg, single dose, before breakfast).
`Cc1ccc(C(=O)NC2CC2)cc1-n1ncc(C(=O)c2cccc(C#N)c2)c1N` has a Cmax of 110 ng/mL (healthy human; oral, dose not given, geometric mean, together with: itraconazole 200 mg daily days 1-14).
The Cmax of `Nc1ccc(-c2nc([C@H]3CCc4cc(-c5cc(Cl)ccc5-n5cnnn5)cc(=O)n43)c(F)[nH]2)c(F)n1` is reported as 1040 ng/mL (human, plasma; oral, 80 mg once daily, fed, day 14).
For `CCCCOC(=O)N1CCN(C(=O)[C@H](CP(=O)(O)O)NC(=O)c2cc(N3CC[C@H](OC)C3)nc(-c3ccccc3)n2)CC1`, the Cmax was 177 ng/mL (healthy human, plasma; subcutaneous, 4 mg, placebo i.v.; geometric mean).
The Cmax of `CCCCCCCCCCCCCCC[C@H](O)[C@@H](N)CO` is reported as 26800 nM (human, phase I, plasma; intravenous, 750 mg/m^2, day 1, monotherapy).
For `O=C(CCCCCCC(=O)Nc1ccccc1)NO`, the Cmax was 445 nM (human, serum; oral, 100 mg three times daily, 14 days, median, together with: idarubicin).
For `CCOc1cc([C@@H](CS(C)(=O)=O)N2C(=O)c3cccc(NC(C)=O)c3C2=O)ccc1OC`, the Cmax was 162 ng/mL (healthy human, both sexes, plasma; oral, 30 mg single dose, together with: rifampicin 600 mg oral once daily, dose 14).
`O=C1NC(=O)[C@@H](c2cn3c4c(cccc24)CCC3)[C@@H]1c1c[nH]c2ccccc12` gave a Cmax of 1430 ng/mL (human, plasma; oral, 240 mg, cycle 1 day 5, steady state, together with: topotecan intravenous).
`COCCCCn1c(C(=O)N(CC(C)C)[C@@H]2CNC[C@H](C(=O)N3CCOCC3)C2)nc2ccccc21` gave a Cmax of 1860 ng/mL (non-elderly human, plasma; oral, 160 mg once daily, day 7).
With `O=C(CCCCCCNC(=O)c1cnc(N(c2ccccc2)c2ccccc2)nc1)NO` the Cmax was 610 ± 163 ng/mL (human, plasma; oral, 160 mg daily).
The Cmax of `Cc1cc(C)c2c(c1)[C@@H](N(Cc1cc(C(F)(F)F)cc(C(F)(F)F)c1)c1nnn(C)n1)CCCN2C[C@H]1CC[C@H](C(=O)O)CC1` is reported as 41.6 ng/mL (human, plasma; oral, 10 mg once daily, steady state, geometric mean).
`O=C(c1ccc(OCCN2CCCCC2)cc1)c1c(-c2ccc(O)cc2)sc2cc(O[C@@H]3O[C@H](C(=O)O)[C@@H](O)[C@H](O)[C@H]3O)ccc12` gave a Cmax of 18 nM (human, plasma; oral, 60 mg raloxifene, baseline, with water).
